Assay results collected from several papers.
Each numbered part is a random draw from the data of one study; scales do not carry over between parts. “And” joins repeats or separate records; there may be more than shown.

Set 1 — read-out: enzyme activity; mode: inhibitor; method: radiometric; tested at: 0.5 µM
Target: Leukocyte tyrosine kinase receptor (LTK, Homo sapiens, UniProt P29376)
UniProt P29376, sequence (whole entry, looked up): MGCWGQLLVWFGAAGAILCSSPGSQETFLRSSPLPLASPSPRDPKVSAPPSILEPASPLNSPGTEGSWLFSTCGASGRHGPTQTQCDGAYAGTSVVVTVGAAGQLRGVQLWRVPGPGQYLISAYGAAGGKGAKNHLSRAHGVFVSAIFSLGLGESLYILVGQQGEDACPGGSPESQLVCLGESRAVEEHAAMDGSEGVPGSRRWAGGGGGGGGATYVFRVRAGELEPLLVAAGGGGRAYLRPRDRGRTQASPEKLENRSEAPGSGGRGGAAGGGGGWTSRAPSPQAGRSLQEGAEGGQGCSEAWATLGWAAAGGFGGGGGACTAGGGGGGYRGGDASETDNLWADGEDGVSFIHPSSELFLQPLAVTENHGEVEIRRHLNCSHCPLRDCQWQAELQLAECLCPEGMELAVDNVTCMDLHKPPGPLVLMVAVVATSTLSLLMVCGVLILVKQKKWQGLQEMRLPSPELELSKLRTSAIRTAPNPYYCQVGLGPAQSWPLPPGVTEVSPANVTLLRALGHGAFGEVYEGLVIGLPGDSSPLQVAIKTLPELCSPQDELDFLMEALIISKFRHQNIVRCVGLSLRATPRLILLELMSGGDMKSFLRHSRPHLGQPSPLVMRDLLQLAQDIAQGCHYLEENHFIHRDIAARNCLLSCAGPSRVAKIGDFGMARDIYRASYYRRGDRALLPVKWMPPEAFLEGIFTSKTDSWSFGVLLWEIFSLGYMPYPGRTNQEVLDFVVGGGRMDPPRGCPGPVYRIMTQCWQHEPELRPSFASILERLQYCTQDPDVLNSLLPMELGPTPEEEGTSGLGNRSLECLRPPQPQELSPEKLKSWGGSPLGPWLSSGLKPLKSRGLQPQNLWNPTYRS
| SMILES | remaining activity [%] |
| --- | --- |
| COc1cc2ncnc(N3CCN(C(=O)Nc4ccc(Oc5ccccc5)cc4)CC3)c2cc1OC | 89.8 |
| Cc1ccc(NC(=O)c2ccc(CN3CCN(C)CC3)cc2)cc1Nc1nccc(-c2cccnc2)n1 | 100 |
| CCOc1cc2ncnc(Nc3cccc(Br)c3)c2cc1OCC | 69.7 |
| CN(C)CCCn1cc(C2=C(c3c[nH]c4ccccc34)C(=O)NC2=O)c2ccccc21 | 99.5 |
| CS(=O)(=O)CCNCc1ccc(-c2ccc3ncnc(Nc4ccc(OCc5cccc(F)c5)c(Cl)c4)c3c2)o1 | 100 |
| O=c1cc(N2CCOCC2)oc2c1ccc1ccccc12 | 101 |

Set 2 — cell line: mouse MPNST tumor cells; method: high-content immunofluorescence imaging; item: nuclear SOX9; tested at: 10 µM; time: 12 h; notes: mean of 2 replicates; baseline: DMSO control; direction: higher = more nuclear SOX9
| Structure (SMILES) | nuclear SOX9 intensity |
| --- | --- |
| CN1[C@@H]2CC[C@H]1C[C@@H](OC(=O)c1cc(Cl)cc(Cl)c1)C2 | 153 % of DMSO |
| CN1C(=O)CCS(=O)(=O)C1c1ccc(Cl)cc1 (stereo not shown) | 102 % of DMSO and 97.5 % of DMSO and 101 % of DMSO |
| CC(C)C[C@H]1C(=O)N2CCC[C@H]2[C@]2(O)O[C@](NC(=O)[C@@H]3C=C4c5cccc6[nH]c(Br)c(c56)C[C@H]4N(C)C3)(C(C)C)C(=O)N12 | 119 % of DMSO and 121 % of DMSO |
| OC(c1ccccc1)(c1ccccc1)C1CCNCC1 | 119 % of DMSO |

Set 3 — read-out: ligand displacement; tested at: 10 µM
Target: Muscarinic acetylcholine receptor M1 (CHRM1, Homo sapiens, UniProt P11229)
UniProt P11229, sequence (whole entry, looked up): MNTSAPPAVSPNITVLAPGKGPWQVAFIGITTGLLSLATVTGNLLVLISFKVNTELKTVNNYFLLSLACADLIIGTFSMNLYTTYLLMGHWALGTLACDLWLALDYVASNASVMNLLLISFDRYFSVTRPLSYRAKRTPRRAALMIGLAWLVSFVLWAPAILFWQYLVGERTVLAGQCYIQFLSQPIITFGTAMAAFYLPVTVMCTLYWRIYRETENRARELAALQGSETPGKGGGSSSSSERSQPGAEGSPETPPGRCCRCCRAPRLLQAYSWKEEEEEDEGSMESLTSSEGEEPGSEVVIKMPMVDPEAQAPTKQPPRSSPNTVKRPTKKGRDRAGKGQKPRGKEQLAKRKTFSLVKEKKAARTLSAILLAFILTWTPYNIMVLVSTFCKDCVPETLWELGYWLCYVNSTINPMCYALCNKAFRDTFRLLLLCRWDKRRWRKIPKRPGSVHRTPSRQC
| Compound | inhibition [%] |
| --- | --- |
| C[C@H](c1ccc(F)cc1)N(Cc1cccc(C(=O)O)c1)C(=O)c1cnc2ccccc2c1 | -14.7 |
| CCC(F)(F)c1cc(N2CCC(S(C)(=O)=O)CC2)nc2sc(C(N)=O)c(N)c12 | 8.33 |
| CCC(=NO)C(C)=Cc1ccc(F)c(C)c1 | -2.46 |
| CCc1ccccc1C(=O)Nc1n[nH]c2c(C)c(F)c(C3C(C#N)=C(C)N(C)C(C)=C3C#N)cc12 | 2.81 |
| c1ccc(C2CCN(c3cnc4c(N5CCOCC5)nccn34)CC2)cc1 | 23.7 |
| C[C@@H]1CN(c2cc(-c3n[nH]c4ccc(OC5(C)CC5)cc34)ncn2)C[C@H](C)O1 | 3.04 |
| COc1cc(N[C@@H]2CCCC[C@]2(O)C(F)(F)F)ccc1F | 18.5 |

Mixed results — cell line: L929; read-out: necroptosis protection; method: CCK-8
| SMILES | conditions | viability |
| --- | --- | --- |
| CC(C)S(=O)(=O)c1ccc2nccc(Nc3ccc4scnc4c3)c2c1 | 0.039 µM, added: TNF-α plus zVAD | 12.9% |
| CC(C)(C)c1nc(-c2cccc(NS(=O)(=O)c3c(F)cccc3F)c2F)c(-c2ccnc(N)n2)s1 | 6.25 µM, added: TNF-α-induced | 45.5% |

Excerpt of the above (mixed results):
| SMILES | conditions | viability |
| --- | --- | --- |
| CC(C)S(=O)(=O)c1ccc2nccc(Nc3ccc4scnc4c3)c2c1 | 0.039 µM, added: TNF-α plus zVAD | 12.9% |
| CC(C)(C)c1nc(-c2cccc(NS(=O)(=O)c3c(F)cccc3F)c2F)c(-c2ccnc(N)n2)s1 | 6.25 µM, added: TNF-α-induced | 45.5% |
